Assay results of several laboratories.
Each line is one published result; not all experiments were run side by side. Values joined by “and” are separate records of one study, mostly repeats; a detail may differ.
Target: Casein kinase I isoform gamma-2 (CSNK1G2, Homo sapiens, UniProt P78368)

SMILES	assay	setting	how to read	endpoint	value
COc1c(Cl)cccc1Nc1c(-c2ccncc2C#C[C@@]2(C)CCCN2C(=O)/C=C/CN(C)C)[nH]c2c1C(=O)NCC2	cell-free assay, competition with immobilised ligand	3 µM	–	remaining binding	90%
Cc1ccc(-c2c(/C=C(\C#N)C(=O)NC(C)C)n(CCCO)c3ncnc(N)c23)cc1	cell-free assay, competition with immobilised ligand	1 µM	–	remaining binding	100%
NC(=O)[C@@H](O)C[C@H]1CCc2sc3ncnc(O[C@H]4CC[C@H](N5CCOCC5)CC4)c3c21	enzyme activity, inhibitor	10 µM	–	inhibition	7%
O=C=[N][Ru-4]123([n]4c5ccc(O)cc5c5c6c(c7cc(F)c[n+]1c7c54)C(=O)NC6=O)[S+]1CC[S+]2CC[S+]3CC1 (stereo not shown)	enzyme activity	100 nM, human enzyme, added: 10 µM ATP	relative to: untreated	remaining activity	44%
CC(=O)N1c2ccc(-c3ccc(CNC(=O)c4cn5cc(-c6cnc(N)nc6)nc(N6CCOCC6)c5n4)cc3)cc2CC[C@@H]1C	KINOMEscan	10 µM	–	remaining binding	90%
COc1ccc(NC(=O)Nc2ccc3c(c2)C(=O)N(C(C)CO)CC(C)C(CN(C)Cc2ccc4c(c2)OCO4)O3)cc1 (stereo not shown)	kinase activity, KinaseProfiler	0.03 µM, species human	relative to: control	remaining activity	108%
COCC12C(=O)NC3C4(C(OC)CC1O)C1CC5(O)C(OC)C(O)C(OC(C)=O)(C1C5OC(=O)c1ccccc1)C3(O)C(OC)C24 (stereo not shown)	kinase activity, inhibitor, ProQinase kinase profiling	25 µM	relative to: control	remaining activity	94% and 95%
CCN1CCN(Cc2ccc(C(=O)Nc3ccc(C)c(NCc4cnc5[nH]ccc5c4OC)c3)cc2C(F)(F)F)CC1	binding, competition with immobilised ligand	1 µM	–	remaining binding	90%
C=CC(=O)N1CCCC(n2c(=O)c3ncccc3n(Cc3ccc(Oc4ccccc4)cc3)c2=O)C1 (stereo not shown)	cell-free assay, competition with immobilised ligand	1 µM	–	remaining binding	87%
COc1ccc(O)cc1-c1c[nH]c2ncc(-c3cncc(C(=O)N(C)C)c3)cc12	binding, competition with immobilised ligand	0.2 µM	–	inhibition	-10.3%
Cc1cnc2nc1Nc1cccc(c1)COC/C=C/COCc1cc(ccc1OCCN1CCOCC1)N2	–	concentration not given	–	percent of control	84%
CNC(=O)C[C@H](Cc1ccc(C#N)cc1)NC(=O)c1cc(-c2ccc(CN[C@H](C)c3ccc(C)cc3)o2)ccc1Cl	enzyme activity, inhibitor	1 µM	–	activity vs control	108%
Nc1ncc2c(n1)-c1c([nH]c3ccc(C4=CCOCC4)cc13)CCC2	binding, competition with immobilised ligand	1 µM	–	remaining binding	100%

Repeated from above:
SMILES	assay	setting	how to read	endpoint	value
NC(=O)[C@@H](O)C[C@H]1CCc2sc3ncnc(O[C@H]4CC[C@H](N5CCOCC5)CC4)c3c21	enzyme activity, inhibitor	10 µM	–	inhibition	7%
O=C=[N][Ru-4]123([n]4c5ccc(O)cc5c5c6c(c7cc(F)c[n+]1c7c54)C(=O)NC6=O)[S+]1CC[S+]2CC[S+]3CC1 (stereo not shown)	enzyme activity	100 nM, human enzyme, added: 10 µM ATP	relative to: untreated	remaining activity	44%
